{"data": "Experimental data pooled from the literature", "note": "Numbered parts are unrelated; each lists some results of a single study.", "chain of UniProt O75582 (whole entry, looked up)": "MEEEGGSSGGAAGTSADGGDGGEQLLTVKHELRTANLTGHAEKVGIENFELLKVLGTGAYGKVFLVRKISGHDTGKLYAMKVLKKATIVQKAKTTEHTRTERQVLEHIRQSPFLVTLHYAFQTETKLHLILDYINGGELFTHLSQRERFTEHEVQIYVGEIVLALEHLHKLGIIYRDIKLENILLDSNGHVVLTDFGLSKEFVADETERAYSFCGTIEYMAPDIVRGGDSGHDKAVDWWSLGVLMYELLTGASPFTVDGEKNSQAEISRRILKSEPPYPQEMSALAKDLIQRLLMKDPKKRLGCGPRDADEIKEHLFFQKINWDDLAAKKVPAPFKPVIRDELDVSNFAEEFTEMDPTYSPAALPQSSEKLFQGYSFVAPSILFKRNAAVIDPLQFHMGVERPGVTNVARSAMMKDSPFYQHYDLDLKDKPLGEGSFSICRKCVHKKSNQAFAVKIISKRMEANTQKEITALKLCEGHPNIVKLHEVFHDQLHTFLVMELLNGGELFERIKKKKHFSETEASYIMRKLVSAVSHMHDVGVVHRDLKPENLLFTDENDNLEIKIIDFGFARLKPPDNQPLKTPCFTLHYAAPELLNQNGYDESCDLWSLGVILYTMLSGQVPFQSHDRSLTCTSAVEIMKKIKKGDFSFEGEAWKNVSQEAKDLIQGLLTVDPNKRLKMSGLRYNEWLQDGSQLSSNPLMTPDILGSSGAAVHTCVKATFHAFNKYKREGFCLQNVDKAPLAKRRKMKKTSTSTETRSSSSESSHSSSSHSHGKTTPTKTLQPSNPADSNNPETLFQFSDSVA", "chain of UniProt Q00535 (whole entry, looked up)": "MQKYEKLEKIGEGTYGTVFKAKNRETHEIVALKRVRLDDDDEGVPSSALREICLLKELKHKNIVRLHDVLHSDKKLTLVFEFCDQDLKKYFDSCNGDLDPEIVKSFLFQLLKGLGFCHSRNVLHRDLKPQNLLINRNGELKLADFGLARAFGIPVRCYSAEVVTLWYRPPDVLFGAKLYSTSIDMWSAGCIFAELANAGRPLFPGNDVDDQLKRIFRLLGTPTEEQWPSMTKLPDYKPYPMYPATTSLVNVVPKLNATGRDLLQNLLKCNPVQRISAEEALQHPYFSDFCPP", "chain of UniProt Q9UPE1 (whole entry, looked up)": "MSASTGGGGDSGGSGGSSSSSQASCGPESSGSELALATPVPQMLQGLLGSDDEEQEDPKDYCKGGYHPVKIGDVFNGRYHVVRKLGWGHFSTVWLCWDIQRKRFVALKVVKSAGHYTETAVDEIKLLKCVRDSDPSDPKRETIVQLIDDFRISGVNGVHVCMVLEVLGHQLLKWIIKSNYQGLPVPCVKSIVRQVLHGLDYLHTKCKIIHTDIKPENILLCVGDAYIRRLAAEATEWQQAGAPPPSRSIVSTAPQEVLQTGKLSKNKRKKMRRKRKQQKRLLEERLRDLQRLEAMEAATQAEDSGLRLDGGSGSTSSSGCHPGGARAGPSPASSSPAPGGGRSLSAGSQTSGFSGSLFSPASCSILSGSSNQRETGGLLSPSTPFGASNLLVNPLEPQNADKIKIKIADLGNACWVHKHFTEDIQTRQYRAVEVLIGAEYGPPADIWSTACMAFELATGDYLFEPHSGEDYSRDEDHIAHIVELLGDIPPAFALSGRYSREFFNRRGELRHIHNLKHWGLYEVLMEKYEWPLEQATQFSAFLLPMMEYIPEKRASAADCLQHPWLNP", "chain of UniProt P11309 (whole entry, looked up)": "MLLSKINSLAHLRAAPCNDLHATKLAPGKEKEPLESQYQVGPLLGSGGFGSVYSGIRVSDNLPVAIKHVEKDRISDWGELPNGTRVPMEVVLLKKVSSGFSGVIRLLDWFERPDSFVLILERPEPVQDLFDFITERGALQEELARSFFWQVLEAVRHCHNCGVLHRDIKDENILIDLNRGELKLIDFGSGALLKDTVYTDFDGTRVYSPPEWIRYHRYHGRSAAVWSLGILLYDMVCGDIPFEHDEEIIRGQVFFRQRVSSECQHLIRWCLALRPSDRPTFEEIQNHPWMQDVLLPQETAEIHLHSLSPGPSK", "chain of UniProt Q05397 (whole entry, looked up)": "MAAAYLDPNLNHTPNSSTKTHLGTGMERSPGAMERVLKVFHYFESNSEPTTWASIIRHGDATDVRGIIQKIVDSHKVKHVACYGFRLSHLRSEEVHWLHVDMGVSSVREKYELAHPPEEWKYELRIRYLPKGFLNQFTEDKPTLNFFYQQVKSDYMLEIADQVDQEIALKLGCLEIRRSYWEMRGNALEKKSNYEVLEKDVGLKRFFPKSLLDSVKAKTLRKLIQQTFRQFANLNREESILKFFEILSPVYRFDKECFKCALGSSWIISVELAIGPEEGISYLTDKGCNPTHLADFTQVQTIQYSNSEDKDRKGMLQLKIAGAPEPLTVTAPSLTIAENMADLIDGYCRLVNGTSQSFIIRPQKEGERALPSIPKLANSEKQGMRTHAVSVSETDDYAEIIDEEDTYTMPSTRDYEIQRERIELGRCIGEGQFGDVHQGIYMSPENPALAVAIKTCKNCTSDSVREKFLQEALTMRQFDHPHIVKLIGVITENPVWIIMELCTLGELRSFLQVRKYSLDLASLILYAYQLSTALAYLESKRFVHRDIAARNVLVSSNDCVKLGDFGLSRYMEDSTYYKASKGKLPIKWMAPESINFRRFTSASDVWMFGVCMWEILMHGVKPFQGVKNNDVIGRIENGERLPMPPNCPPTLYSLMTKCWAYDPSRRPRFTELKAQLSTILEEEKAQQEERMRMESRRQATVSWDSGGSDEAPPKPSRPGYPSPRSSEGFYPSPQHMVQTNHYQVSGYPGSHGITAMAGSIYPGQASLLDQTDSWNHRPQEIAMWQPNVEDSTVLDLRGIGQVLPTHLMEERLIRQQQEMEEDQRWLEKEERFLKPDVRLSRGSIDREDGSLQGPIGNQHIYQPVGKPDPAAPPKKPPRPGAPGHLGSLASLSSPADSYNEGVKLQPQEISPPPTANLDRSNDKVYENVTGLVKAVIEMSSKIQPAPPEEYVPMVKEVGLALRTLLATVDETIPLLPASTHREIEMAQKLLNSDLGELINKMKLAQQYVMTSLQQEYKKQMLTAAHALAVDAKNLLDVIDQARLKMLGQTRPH", "chain of UniProt O15197 (whole entry, looked up)": "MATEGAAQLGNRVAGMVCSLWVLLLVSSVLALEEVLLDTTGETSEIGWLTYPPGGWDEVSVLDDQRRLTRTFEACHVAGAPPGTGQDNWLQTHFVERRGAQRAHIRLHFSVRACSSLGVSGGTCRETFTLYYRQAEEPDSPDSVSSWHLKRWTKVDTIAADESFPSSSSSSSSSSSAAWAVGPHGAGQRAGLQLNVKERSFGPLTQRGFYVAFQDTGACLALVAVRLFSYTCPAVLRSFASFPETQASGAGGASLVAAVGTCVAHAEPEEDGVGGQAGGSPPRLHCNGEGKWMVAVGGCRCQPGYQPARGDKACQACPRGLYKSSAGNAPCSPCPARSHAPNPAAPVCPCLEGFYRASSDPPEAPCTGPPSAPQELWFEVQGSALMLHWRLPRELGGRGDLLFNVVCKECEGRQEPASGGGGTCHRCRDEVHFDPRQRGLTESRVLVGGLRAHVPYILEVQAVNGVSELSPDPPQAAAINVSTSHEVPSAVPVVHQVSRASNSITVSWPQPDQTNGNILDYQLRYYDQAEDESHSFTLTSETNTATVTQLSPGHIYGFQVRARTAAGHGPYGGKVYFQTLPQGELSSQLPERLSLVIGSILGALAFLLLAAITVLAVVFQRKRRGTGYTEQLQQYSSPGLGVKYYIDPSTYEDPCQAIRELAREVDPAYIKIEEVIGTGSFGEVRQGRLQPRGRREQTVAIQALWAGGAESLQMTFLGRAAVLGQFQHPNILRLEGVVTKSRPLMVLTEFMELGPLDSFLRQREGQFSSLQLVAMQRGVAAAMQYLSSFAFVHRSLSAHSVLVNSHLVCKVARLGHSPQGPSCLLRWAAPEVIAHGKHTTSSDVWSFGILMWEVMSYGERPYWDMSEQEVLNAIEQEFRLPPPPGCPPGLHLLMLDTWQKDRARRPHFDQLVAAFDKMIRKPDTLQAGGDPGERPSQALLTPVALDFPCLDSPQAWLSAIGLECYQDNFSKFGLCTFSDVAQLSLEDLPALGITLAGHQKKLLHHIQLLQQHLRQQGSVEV", "chain of UniProt P50613 (whole entry, looked up)": "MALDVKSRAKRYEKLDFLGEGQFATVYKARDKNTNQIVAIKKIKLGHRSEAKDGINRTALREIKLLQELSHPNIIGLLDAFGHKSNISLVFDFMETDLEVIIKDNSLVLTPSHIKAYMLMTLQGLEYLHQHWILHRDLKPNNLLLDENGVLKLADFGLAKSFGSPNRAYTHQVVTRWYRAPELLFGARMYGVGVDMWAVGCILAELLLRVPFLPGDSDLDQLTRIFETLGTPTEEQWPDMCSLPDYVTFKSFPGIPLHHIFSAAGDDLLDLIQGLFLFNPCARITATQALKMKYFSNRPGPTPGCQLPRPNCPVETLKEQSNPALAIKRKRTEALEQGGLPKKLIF"}
{"data": "Study 1", "target": "Calcium/calmodulin-dependent protein kinase type II subunit alpha (CAMK2A, Homo sapiens, UniProt Q9UQM7)", "observed": "enzyme activity", "mode": "inhibitor", "tested at": "10 µM", "chain of UniProt Q9UQM7 (whole entry, looked up)": "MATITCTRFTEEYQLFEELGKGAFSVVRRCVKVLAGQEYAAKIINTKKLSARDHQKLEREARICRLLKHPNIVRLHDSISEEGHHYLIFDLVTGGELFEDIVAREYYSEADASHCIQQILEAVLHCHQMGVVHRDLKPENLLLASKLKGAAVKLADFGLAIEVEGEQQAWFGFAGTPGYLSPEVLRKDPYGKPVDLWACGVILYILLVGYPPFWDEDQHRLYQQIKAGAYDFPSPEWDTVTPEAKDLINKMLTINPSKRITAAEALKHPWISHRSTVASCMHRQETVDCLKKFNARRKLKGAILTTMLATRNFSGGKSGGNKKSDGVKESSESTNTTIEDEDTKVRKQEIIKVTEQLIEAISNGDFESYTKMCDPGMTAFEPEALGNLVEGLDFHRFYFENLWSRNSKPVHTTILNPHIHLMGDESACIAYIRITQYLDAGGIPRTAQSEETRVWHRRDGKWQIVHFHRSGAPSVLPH"}
{"Structure (SMILES)": "C=CCc1ccc(O)c(O)c1", "inhibition [%]": -34}
{"Structure (SMILES)": "COc1ccc(-c2cc(=S)ss2)cc1", "inhibition [%]": 2}
{"Structure (SMILES)": "CCCOc1cc(N)ccc1C(=O)OCCN(CC)CC", "inhibition [%]": -14}
{"Structure (SMILES)": "CCCCCCC[C@H](O)CC(=O)CCc1ccc(O)c(OC)c1", "inhibition [%]": -10}
{"Structure (SMILES)": "C[C@]12CC[C@@H]3c4ccc(O)cc4C[C@@H](CCCCCCCCC[S+]([O-])CCCC(F)(F)C(F)(F)F)[C@H]3[C@@H]1CC[C@@H]2O (some centres unmarked)", "inhibition [%]": 1}
{"Structure (SMILES)": "N=c1nc(N2CCCCC2)cc(N)n1O", "inhibition [%]": 7}
{"Structure (SMILES)": "C[C@@H](c1ncncc1F)[C@](O)(Cn1cncn1)c1ccc(F)cc1F", "inhibition [%]": 6}
{"data": "Study 2", "Compound": "CN(C)CC#Cc1ccc(OCCCc2sc(N3CCc4cccc(C(=O)Nc5nc6ccccc6s5)c4C3)nc2C(=O)O)c(F)c1", "observed": "cell-free assay", "method": "competition with immobilised ligand", "tested at": "1 µM"}
{"target": "Tyrosine-protein kinase Fes/Fps (FES, Homo sapiens, UniProt P07332)", "remaining binding [%]": 100}
{"target": "Serine/threonine-protein kinase PLK3 (PLK3, Homo sapiens, UniProt Q9H4B4)", "remaining binding [%]": 92}
{"target": "Casein kinase I isoform gamma-2 (CSNK1G2, Homo sapiens, UniProt P78368)", "remaining binding [%]": 92}
{"target": "SRSF protein kinase 3 (SRPK3, Homo sapiens, UniProt Q9UPE1)", "remaining binding [%]": 100}
{"target": "Ephrin type-A receptor 2 (EPHA2, Homo sapiens, UniProt P29317)", "remaining binding [%]": 92}
{"target": "Mitogen-activated protein kinase kinase kinase 5 (MAP3K5, Homo sapiens, UniProt Q99683)", "remaining binding [%]": 94}
{"target": "Serine/threonine-protein kinase pim-1 (PIM1, Homo sapiens, UniProt P11309)", "remaining binding [%]": 100}
{"target": "Mitogen-activated protein kinase 3 (MAPK3, Homo sapiens, UniProt P27361)", "remaining binding [%]": 96}
{"target": "Phosphatidylinositol 4,5-bisphosphate 3-kinase catalytic subunit beta isoform (PIK3CB, Homo sapiens, UniProt P42338)", "remaining binding [%]": 100}
{"target": "Focal adhesion kinase 1 (PTK2, Homo sapiens, UniProt Q05397)", "remaining binding [%]": 100}
{"target": "Serine/threonine-protein kinase PRP4 homolog (PRPF4B, Homo sapiens, UniProt Q13523)", "remaining binding [%]": 100}
{"target": "Ribosomal protein S6 kinase alpha-5, C-terminal kinase domain (RPS6KA5, Homo sapiens, UniProt O75582)", "remaining binding [%]": 83}
{"target": "Ephrin type-B receptor 6 (EPHB6, Homo sapiens, UniProt O15197)", "remaining binding [%]": 100}
{"target": "Serine/threonine-protein kinase B-raf (BRAF, Homo sapiens, UniProt P15056)", "remaining binding [%]": 100}
{"target": "Calcium/calmodulin-dependent protein kinase type 1B (PNCK, Homo sapiens, UniProt Q6P2M8)", "remaining binding [%]": 100}
{"target": "Insulin-like growth factor 1 receptor (IGF1R, Homo sapiens, UniProt P08069)", "remaining binding [%]": 98}
{"target": "Cyclin-dependent kinase 5 (CDK5, Homo sapiens, UniProt Q00535)", "remaining binding [%]": 100}
{"target": "Tyrosine-protein kinase ABL1, non-phosphorylated (ABL1, Homo sapiens, UniProt P00519, T315I)", "remaining binding [%]": 51}
{"target": "Cyclin-dependent kinase 7 (CDK7, Homo sapiens, UniProt P50613)", "remaining binding [%]": 100}
{"target": "Membrane-associated tyrosine- and threonine-specific cdc2-inhibitory kinase (PKMYT1, Homo sapiens, UniProt Q99640)", "remaining binding [%]": 71}
{"target": "Macrophage colony-stimulating factor 1 receptor (CSF1R, Homo sapiens, UniProt P07333)", "remaining binding [%]": 100}
{"target": "Tyrosine-protein kinase SYK (SYK, Homo sapiens, UniProt P43405)", "remaining binding [%]": 100}
{"target": "ALK tyrosine kinase receptor (ALK, Homo sapiens, UniProt Q9UM73)", "remaining binding [%]": 100}
{"data": "Study 3", "Structure (SMILES)": "O=C(Nc1cnn(-c2csc(C(=O)NC3COC3)c2)c1)Nc1ccccc1Cl", "observed": "enzyme activity", "tested at": "5 µM", "reference": "untreated control"}
{"target": "Protein kinase C iota type (PRKCI, Homo sapiens, UniProt P41743)", "remaining activity": "94.2%"}
{"target": "Insulin receptor-related protein (INSRR, Homo sapiens, UniProt P14616)", "remaining activity": "93.8%"}
{"target": "Cyclin-dependent kinase 2, with cyclin A (CDK2, Homo sapiens, UniProt P24941)", "remaining activity": "92.3%"}
{"target": "Ephrin type-A receptor 7 (EPHA7, Homo sapiens, UniProt Q15375)", "remaining activity": "101%"}
{"target": "Angiopoietin-1 receptor (TEK, Homo sapiens, UniProt Q02763)", "remaining activity": "97.2%"}
{"target": "Serine/threonine-protein kinase D3 (PRKD3, Homo sapiens, UniProt O94806)", "remaining activity": "101%"}
{"target": "Mitogen-activated protein kinase kinase kinase kinase 1 (MAP4K1, Homo sapiens, UniProt Q92918)", "remaining activity": "127%"}
{"target": "Cyclin-dependent kinase 2, with cyclin O (CDK2, Homo sapiens, UniProt P24941)", "remaining activity": "91.3%"}
{"target": "Mitogen-activated protein kinase 8 (MAPK8, Homo sapiens, UniProt P45983)", "remaining activity": "55.9%"}
{"data": "Study 4", "species": "mouse", "sample": "microsomes or S9", "tested at": "2 µM", "time": "0.5 h"}
{"Structure (SMILES)": "CCOc1ccc(CNC(=O)C(NS(=O)(=O)c2ccc3c(c2)CCCC(=O)N3)C(C)C)cc1 (centres unmarked)", "remaining compound [%]": 65}
{"Structure (SMILES)": "c1ccc(Oc2ccc(Nc3ncnc4[nH]ncc34)cc2)cc1", "remaining compound [%]": 6.76}
{"Structure (SMILES)": "Cc1cc(C)n(C2CCN(C(=O)c3sc4ncn(C)c(=O)c4c3C)C2)n1 (centres unmarked)", "remaining compound [%]": 41.9}
{"Structure (SMILES)": "CCCNS(=O)(=O)c1nc2nc(C)cc(C)n2n1", "remaining compound [%]": 47.5}
{"Structure (SMILES)": "C/C(=C\\COc1ccc2ccc(=O)oc2c1)CC[C@H]1C(C)(C)[C@@H](O)CC[C@@]1(C)O", "remaining compound [%]": 36.1}
{"Structure (SMILES)": "CCOC(=O)c1ccccc1NS(=O)(=O)CC", "remaining compound [%]": 82.3}
{"Structure (SMILES)": "CC1(C)CC(=O)c2c(O)cc(OCC(=O)c3ccc(N4CCCC4)cc3)cc2O1", "remaining compound [%]": 2.05}
{"Structure (SMILES)": "COc1ccc(/C=C(/C)c2nc(C)c(-c3ccccc3)c(O)n2)cc1", "remaining compound [%]": 65.6}
{"note": "Some of these lines once more (study 2):"}
{"target": "Ephrin type-B receptor 6 (EPHB6, Homo sapiens, UniProt O15197)", "remaining binding [%]": 100}
{"target": "Serine/threonine-protein kinase B-raf (BRAF, Homo sapiens, UniProt P15056)", "remaining binding [%]": 100}
{"target": "Calcium/calmodulin-dependent protein kinase type 1B (PNCK, Homo sapiens, UniProt Q6P2M8)", "remaining binding [%]": 100}
